Assay results gathered from unrelated publications.
Protocols differ between the studies behind these lines. “And” joins repeats or separate records; there may be more than shown. Numbers after ± are the reported error.

Structure (SMILES)	cell line	assay	system	conditions	scale	measurement	result
O=c1c(O)c(-c2ccc(O)c(O)c2)oc2cc(O)cc(O)c12	MDBK	MTT	–	256 µg/mL	–	cytotoxicity	not toxic
N[C@@H](CCCCNC(=O)CCCC[C@@H]1SC[C@@H]2NC(=O)N[C@@H]21)C(=O)O	MDBK	streptavidin staining	–	10 µM, 1 h	–	cellular uptake	not detected
CCC(C)C(=O)C(=O)[O-].[Na+] (centres unmarked)	HCT-8	Hoechst nuclei count	–	1 mM, 24 h	reference: PBS	host cell number	0.977 ± 0.068
Cc1ccc(Nc2cnnc3ccc(-c4ccc(N5CCN(C)CC5)cc4)cc23)cn1	C2C12 mouse myoblasts	cytotoxicity	–	–	–	TC50	5.1 µM
C[n+]1cc(NC(=O)c2ccc3ccc4ccc(C(=O)Nc5cc6ccccc6[n+](C)c5)nc4c3n2)cc2ccccc21	MA104	cytotoxicity, resazurin	–	5 days	–	CC50	52 ± 10 µM
COCC(=O)N1CCC[C@@H](C(=O)NCc2nc(-c3ccccc3)cs2)C1	Jurkat	CellTiter-Glo	–	72 h	–	CC50	> 50 µM
COc1cccc2c1C(=O)c1c(O)c3c(c(O)c1C2=O)C[C@@](O)(C(=O)CO)C[C@@H]3O[C@H]1C[C@H](N)[C@H](O)[C@H](C)O1	RAW264.7	cytotoxicity, MTT	–	–	–	IC50	0.25 ± 0.03 µM
COc1ccc(NC(=S)N/N=C/c2cccc3cc4ccccc4nc23)cc1	HeLa	annexin V/PI	–	IC25, 48 h, added: NAC	–	viable cells	82.3 ± 2.1%
CCc1c(-c2ccccc2)c(-c2ccccc2)nn1-c1ccccc1-c1cccc(OCC(=O)O)c1	mouse bone marrow macrophages	CCK-8	–	50 µM, 4000 cells	reference: untreated	viability	77.6% and 60% and 58.8% and 68.6% and 77.9% and 63.7%
COc1ccn2c(Nc3ccccc3F)c(-c3ccncn3)nc2c1	MDCK-II wild type	–	–	10 µM, 2 h, added: elacridar 2 µM	–	Papp A-B	35.9 ×10⁻⁶ cm/s
COc1cccc(-c2n[nH]c(SCc3ccccn3)n2)c1OC	CHO-WBL	–	–	63 µg/mL, 19 h, without S9	–	micronuclei per binucleated cell	0.02
Cc1cc(C(=O)NC(C)(C)COc2cccc3c2C(N)=NS(=O)(=O)N3)cc(C)n1	human peripheral blood lymphocytes	CBPI, preliminary test	–	2000 µg/mL, 4 h, added: rat liver S9	reference: vehicle control	cytotoxicity	10%
Cc1ncc(CO)c(CN)c1O.Cl.Cl	HCT-8	Hoechst nuclei count	–	1 mM, 24 h	reference: PBS	host cell number	1.01 ± 0.03
O=C(O)c1ccc(NCc2cccc(O)c2)cc1	HGF	cell viability, resazurin	–	72 h, 10% FBS	–	IC50	> 100 µM
Nc1cccc2c1C(=O)N([C@@H]1CCCNC1)C2=O	RAW264.7	–	–	1 µM, added: LPS 10 ng/mL	–	viability	100 ± 2%
COc1ccc(CNc2ccc(C(=O)O)cc2)cc1	HGF	cell viability, resazurin	–	72 h, 10% FBS	–	IC50	> 100 µM
COC(=O)[C@@H](N)Cc1ccc(O)cc1	HCT-8	Hoechst nuclei count	–	1 mM, 24 h	reference: PBS	host cell number	1.01 ± 0.043
CC1(C)CCC(c2ccc(Cl)cc2)=C(CN2CCN(c3ccc(C(=O)NS(=O)(=O)c4ccc(N[C@H](CCN5CCOCC5)CSc5ccccc5)c(S(=O)(=O)C(F)(F)F)c4)cc3)CC2)C1	mouse ileum enteroid monolayers	pulse-chase lymph lipoprotein secretion	medium	50 % of saturated solubility, 2 h, chylomicron peak interval, oleic acid/2-monoolein	–	fraction of dose absorbed	1.49 ± 0.17%
N[C@@H](CCO)C(=O)O	HCT-8	Hoechst nuclei count	–	1 mM, 24 h	reference: PBS	host cell number	0.952 ± 0.074
COc1cc2ncnc(Nc3ccc(Oc4ccccc4)c(C)c3C)c2cc1OC.Cl	SK-MEL-2 (NRAS Q61R)	resazurin	–	concentration not given, 72 h, added: trametinib 0 nM	–	viability fraction	0.875 and 0.617 and 0.987 and 0.905 and 0.946 and 0.886 and 0.918
O=C(O)c1ccc(NCc2ccc(Cl)cc2)cc1	HGF	cell viability, resazurin	–	72 h, 10% FBS	–	IC50	> 100 µM
COC(=O)N[C@H](C(=O)N1CCC[C@H]1c1nc(-c2ccc(-c3ccc(-c4c[nH]c([C@@H]5CCCN5C(=O)[C@@H](NC(=O)OC)C(C)C)n4)cc3)cc2)c[nH]1)C(C)C	MDBK	–	–	–	–	CC50	36 µM
OC[C@H]1O[C@@H](c2ccc(Cl)c(Cc3ccc(O[C@@H]4CCOC4)cc3)c2)[C@H](O)[C@@H](O)[C@@H]1O	H9c2	CCK-8	–	0.1 µM, added: glucose deprivation	reference: control	viability	58.9 ± 4.9%
Cc1cc(Nc2ccc(S(F)(F)(F)(F)F)cc2)n2nc(C(C)(F)F)nc2n1	Jurkat	–	culture medium	5 µM, 48 h	–	free drug concentration	600 nM
CN(C)c1ccc(CNc2ccc(C(=O)O)cc2)cc1	HGF	cell viability, resazurin	–	72 h, 10% FBS	–	IC50	> 100 µM
C/C(O)=C(\C#N)C(=O)Nc1ccc(C(F)(F)F)cc1	Jurkat	–	culture medium	3 µM, 48 h	–	free drug concentration	780 nM
Cn1nc2c(=O)n(C3CC3)ccc2c1[C@](O)(c1cnc(C(F)(F)F)c(Cl)c1)C(F)(F)F	Jurkat	CellTiter-Glo	–	–	–	CC50	14 ± 0.71 µM

Structure (SMILES)	cell line	assay	system	conditions	scale	measurement	result
Cc1ccc(CNC(=O)Cn2cc(CSc3nc4ccccc4[nH]3)nn2)cc1	HEK293	MTT	–	7.81 ppm	–	viability	48.9%
NCCCN	HCT-8	Hoechst nuclei count	–	1 mM, 24 h	reference: PBS	host cell number	1.01 ± 0.046
OC[C@H]1O[C@@H](c2ccc(Cl)c(Cc3ccc(OC4CCOCC4)cc3)c2)[C@H](O)[C@@H](O)[C@@H]1O	H9c2	CCK-8	–	0.1 µM, added: glucose deprivation	reference: control	viability	53.6 ± 4.51%
CCC(=O)O	HCT-8	Hoechst nuclei count	–	1 mM, 24 h	reference: PBS	host cell number	0.852 ± 0.065
CCOCC(=O)N1CCC[C@H](C(=O)NCc2nc(-c3ccc(C)nc3)cs2)C1	Jurkat	CellTiter-Glo	–	72 h	–	CC50	> 50 µM
O=C(O)c1ccc(NCc2ccc(Br)cc2)cc1	HGF	cell viability, resazurin	–	72 h, 10% FBS	–	IC50	> 100 µM
Nc1ncnc2c1ncn2C1CCCC1	NCI-H460	–	–	up to 100 µM, 8 days	reference: vehicle	viability	> 80%
Cc1ccc(Nc2cnnc3ccc(-c4ccc(N5CCCN(C)CC5)cc4)cc23)cn1	C2C12 mouse myoblasts	cytotoxicity	–	–	–	TC50	7.8 µM
COCC(=O)N1CCC[C@H](C(=O)NCc2nc(-c3cccnc3)cs2)C1	Jurkat	CellTiter-Glo	–	72 h	–	CC50	> 50 µM
COc1ccc(Cl)cc1C(=O)NCCc1ccc(S(=O)(=O)NO)cc1	THP-1 ASC-GFP monocytes	MTT	–	24 h	–	maximum tolerated dose	3.11 µg/mL
CC1=CC[C@H]2[C@@H]([C@@H]1CC[C@H]1[C@]3(C)CC[C@H](O)C(C)(C)O[C@H]3CC[C@]1(C)O)C(C)(C)CC[C@]2(C)O	KB-C2 (P-gp overexpressing)	cell viability, MTT	DMEM with 10% bovine serum	72 h	–	IC50	> 50 µM
Cn1nc2c(=O)n(C3CC3)ncc2c1[C@](O)(c1cnc(C(F)(F)F)c(Cl)c1)C(F)(F)F	Jurkat	CellTiter-Glo	–	–	–	CC50	43 ± 4.2 µM
COc1ccc(Nc2cnnc3cc(-c4cnc(N5CCN(C)CC5)nc4)ccc23)cc1Cl	C2C12 mouse myoblasts	cytotoxicity	–	–	–	TC50	> 10 µM
COc1ccccc1CNc1ccc(C(=O)O)cc1	HGF	cell viability, resazurin	–	72 h, 10% FBS	–	IC50	> 100 µM
CN1CCC[C@@H](N2C(=O)c3cccc(N)c3C2=O)C1	RAW264.7	–	–	1 µM, added: LPS 10 ng/mL	–	viability	100 ± 2%
Cc1cc(C)c(NC(=O)CN(CC(=O)[O-])CC(=O)[O-])c(C)c1Br.Cc1cc(C)c(NC(=O)CN(CC(=O)[O-])CC(=O)[O-])c(C)c1Br.[99Tc+4]	human sandwich-cultured hepatocytes	–	–	–	–	uptake clearance	23.7 ± 12.1 mL/min/kg
COc1cc(CNc2ccc(C(=O)O)cc2)cc(OC)c1O	HGF	cell viability, resazurin	–	72 h, 10% FBS	–	IC50	> 100 µM
COCC(=O)N1CCC[C@H](C(=O)NCc2nc(-c3ccc(C)cc3)cs2)C1	Jurkat	CellTiter-Glo	–	72 h	–	CC50	> 50 µM
CCCN(CCc1cccs1)[C@H]1CCc2c(O)cccc2C1	RAW264.7	resazurin	DMEM with 10% FBS	–	–	CC50	39.3 ± 9.23 µM
NC(N)=O	HCT-8	Hoechst nuclei count	–	1 mM, 24 h	reference: PBS	host cell number	0.953 ± 0.054
C[C@H]1O[C@@H](O[C@H]2[C@@H](O)C[C@H](O[C@H]3[C@@H](O)C[C@H](O[C@H]4CC[C@@]5(C)[C@H](CC[C@@H]6[C@@H]5C[C@@H](O)[C@]5(C)[C@@H](C7=CC(=O)OC7)CC[C@]65O)C4)O[C@@H]3C)O[C@@H]2C)C[C@H](O)[C@@H]1O	MDCK-II wild type	–	–	–	–	Papp A-B	1.5 ×10⁻⁶ cm/s
N=C(CCl)NCCC[C@H](NC(=O)c1ccc2ccc(O)cc2c1)C(=O)NCc1ccccc1	A549 and MDA-MB-231	MTT	–	48 h, 10% FBS	reference: CC50 over PAD4 IC50	therapeutic index	> 400 fold
COc1ccc(Nc2cnnc3cc(-c4ccc(S(=O)(=O)N5CCN(C)CC5)cc4)ccc23)cc1Cl	C2C12 mouse myoblasts	cytotoxicity	–	–	–	TC50	> 10 µM
CC(=O)O	HCT-8	Hoechst nuclei count	–	1 mM, 24 h	reference: PBS	host cell number	0.953 ± 0.085
Cn1nc2c(=O)n(C3CC3)ncc2c1[C@](N)(c1ccc(C(F)(F)F)c(Cl)c1)C1CC1	Jurkat	CellTiter-Glo	–	–	–	CC50	19 ± 2.8 µM
O=C(O)c1ccc(NCc2ccccc2)cc1	HGF	cell viability, resazurin	–	72 h, 10% FBS	–	IC50	> 100 µM

Some of these lines once more:
Structure (SMILES)	cell line	assay	system	conditions	scale	measurement	result
OC[C@H]1O[C@@H](c2ccc(Cl)c(Cc3ccc(O[C@@H]4CCOC4)cc3)c2)[C@H](O)[C@@H](O)[C@@H]1O	H9c2	CCK-8	–	0.1 µM, added: glucose deprivation	reference: control	viability	58.9 ± 4.9%
Cn1nc2c(=O)n(C3CC3)ncc2c1[C@](N)(c1ccc(C(F)(F)F)c(Cl)c1)C1CC1	Jurkat	CellTiter-Glo	–	–	–	CC50	19 ± 2.8 µM
COc1cccc(-c2n[nH]c(SCc3ccccn3)n2)c1OC	CHO-WBL	–	–	63 µg/mL, 19 h, without S9	–	micronuclei per binucleated cell	0.02
C/C(O)=C(\C#N)C(=O)Nc1ccc(C(F)(F)F)cc1	Jurkat	–	culture medium	3 µM, 48 h	–	free drug concentration	780 nM
